Measurements pooled from the literature.
Each line is one published result; not all experiments were run side by side. Values joined by “and” are separate records of one study, mostly repeats; a detail may differ. In brackets after ≈: the same amount, converted by molar mass.

`O=C(NNc1cc(F)ccc1F)c1nnc(CC23CC4CC(CC(C4)C2)C3)o1` gave an inhibition of 100% (Fusarium graminearum; fungal growth, inhibitor; 50 µg/mL).
`c1ccc(C(NCCNC(c2ccccc2)c2ccccc2)c2ccccc2)cc1` has an inhibition of 109% (sodium channel site 2, rat; binding; 10 µM, Eurofins selectivity panel).
`CC[C@H](C)[C@@H]1NC(=O)[C@@H]2CCCN2C(=O)[C@H](CC(C)C)NC(=O)[C@H](CC(C)C)NC(=O)CNC(=O)[C@@H](NC(=O)[C@@H](NC(=O)[C@H](CC(=O)O)NC(=O)CNC(=O)[C@@H](NC(=O)[C@H](C)NC(=O)CNC(=O)[C@H](CCCCN)NC(=O)[C@H](CC(C)C)NC(=O)[C@H](CC(C)C)NC(=O)[C@H](CCCCN)NC(=O)CNC(=O)[C@@H](NC(=O)[C@@H](N)CC(C)C)C(C)C)C(C)C)C(C)C)CSSC[C@@H](C(=O)O)NC1=O` — result for “log2 fold change”: -2.08 (RNA-seq, item: novel.213 mRNA; mouse traumatic brain injury, frontal cortex and hippocampus; dose not given; relative to: TBI plus compound vs TBI).
`O=C1NC(=O)C(C2C3=C(CCCC3=O)Oc3ccc([N+](=O)[O-])cc32)C(=O)N1` (stereo not drawn) gave a lipid content of 0.492 OD492 and 0.51 OD492 and 0.578 OD492 (3T3-L1 preadipocytes; adipogenesis, Oil Red O staining; IC20, 14 days, single replicate).
With `COc1cc(Nc2ncc(F)c(Nc3ccc4c(n3)NC(=O)C(C)(C)O4)n2)cc(OC)c1OC` the IC50 was greater than 10 µM (GABA transporter).
With `CC[C@H](C)[C@H](NC(=O)[C@H](C)NC(=O)[C@H](CCCCN)NC(=O)[C@H](CC(C)C)NC(=O)[C@H](C)NC(=O)[C@@H](NC(=O)[C@H](Cc1c[nH]cn1)NC(=O)[C@H](CC(C)C)NC(=O)[C@@H](NC(=O)[C@@H](NC(=O)[C@H](CCCCN)NC(=O)[C@H](C)NC(=O)[C@H](C)NC(=O)[C@H](CO)NC(=O)[C@H](CCCCN)NC(=O)[C@H](Cc1ccccc1)NC(=O)[C@@H](NC(=O)[C@H](CCCCN)NC(=O)[C@H](CC(C)C)NC(=O)[C@H](Cc1ccccc1)NC(=O)[C@H](CO)NC(=O)[C@H](CCCCN)NC(=O)[C@H](Cc1c[nH]c2ccccc12)NC(=O)[C@H](CCCCN)NC(C)=O)[C@@H](C)O)[C@@H](C)O)C(C)C)[C@@H](C)O)C(=O)N[C@@H](CO)C(=O)N[C@@H](CO)C(N)=O` the MBC90 was 32 µg/mL (≈ 10.9 µM) (Enterobacter cloacae; 40 strains).
The inhibition of `CCOC(=O)c1c(/C(C#N)=C\N)c2ccc(Cl)c(Cl)c2n1C` is reported as -15% (murine hepatitis virus; viral replication, nanoluciferase reporter; DBT; 1 µM; relative to: DMSO vehicle).
`COc1ccc(-n2nc(C(C)=O)s/c2=N\N=C(/C)c2ccc(NC(C)=O)cc2)cc1` gave a toxicity of 94.8% (HepG2; 1.25 µM).
`COc1cc(CCC[P+](c2ccccc2)(c2ccccc2)c2ccccc2)c(OC)c2c1OCO2.[I-]` has an LC50 of -4.25 log M (OVCAR-3; SRB).

Excerpt of the above:
`COc1cc(CCC[P+](c2ccccc2)(c2ccccc2)c2ccccc2)c(OC)c2c1OCO2.[I-]` has an LC50 of -4.25 log M (OVCAR-3; SRB).
